Assay results gathered from unrelated publications.
Each numbered part is a random draw from the data of one study; scales do not carry over between parts. Changes are numbered by the printed parent chain.

Study 1 — method: RNAcompete; form: RNA; matrix: in vitro; tested at: 20 nM; setting: 7-mer, probes averaged, single round; relative to: mean of 7-mers; reading: higher = stronger binding
Target: PABPC1L2, full length, GST fusion (mouse, UniProt A0ABA7IW68)
Target sequence (chain): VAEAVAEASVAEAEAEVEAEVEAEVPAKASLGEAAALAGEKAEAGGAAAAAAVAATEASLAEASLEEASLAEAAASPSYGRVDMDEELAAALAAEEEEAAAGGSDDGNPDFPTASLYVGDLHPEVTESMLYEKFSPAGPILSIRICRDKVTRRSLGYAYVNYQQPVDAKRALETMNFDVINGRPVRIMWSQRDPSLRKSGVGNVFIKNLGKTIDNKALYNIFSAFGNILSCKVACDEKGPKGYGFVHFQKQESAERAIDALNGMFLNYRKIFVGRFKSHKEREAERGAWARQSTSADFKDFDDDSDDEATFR
Sequence	7-mer Z-score
ACGCUUA	-0.258
GGUUCGA	-0.0808
GACGAAA	0.793
AUUGACU	-0.121
CCCAACG	-0.3
UGCGUAC	-0.356
CUUUAUU	-0.175

Study 2 — method: DHFR PCA, deep sequencing; matrix: yeast; with: (+)-ABA 17 µM; relative to: wild-type fitted maximum; reading: higher = stronger binding
Target: ABI1, truncated, D143A, DHFR fusion (Arabidopsis thaliana)
Setting: methotrexate growth selection, single substitutions
Parent: PYL1, truncated, DHFR fusion (Arabidopsis thaliana); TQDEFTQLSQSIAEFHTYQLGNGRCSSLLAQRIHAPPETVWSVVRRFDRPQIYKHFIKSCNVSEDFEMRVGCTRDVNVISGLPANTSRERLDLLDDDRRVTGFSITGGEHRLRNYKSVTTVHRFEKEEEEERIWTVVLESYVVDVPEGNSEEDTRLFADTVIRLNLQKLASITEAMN
Change	relative binding score
E89F	0.63%
F157T	-15.9%
E130Y	69.7%
S140R	0.0902%
S171K	94.3%
I79W	80%

Study 3 — method: protein binding microarray; form: double-stranded DNA, one strand shown; matrix: in vitro; tested at: not given; relative to: not given; reading: higher = stronger binding
Target: Histone acetyltransferase KAT6A, both winged helices, GST fusion (KAT6A, Homo sapiens, UniProt Q92794, residues 1-181)
Setting: 8-mer, flanks averaged, mean of 2 arrays, mostly near background
Residues (chain): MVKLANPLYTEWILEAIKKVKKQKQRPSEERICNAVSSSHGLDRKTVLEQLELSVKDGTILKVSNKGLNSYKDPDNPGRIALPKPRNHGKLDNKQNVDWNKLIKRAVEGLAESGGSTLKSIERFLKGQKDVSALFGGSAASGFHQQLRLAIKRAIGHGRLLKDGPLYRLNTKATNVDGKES
Sequence	E-score
CTCAATGC	0.0472
ACGAAATA	-0.106
CTCACCTA	-0.0162
AATAGAGT	-0.207
ACTTGACG	0.0249
GCAGACGC	0.187
ATTGTCTG	-0.046
GACATCGC	0.2
GAGTTAAC	-0.0208

Further values, each from its own experiment
Substance	target	assay	test system	conditions	scale	endpoint	result
PhoQ, residues 284 288 289 292 302 303 NLSRDF	PhoP, residues 12 14 15 18 19 LYFRQ (Escherichia coli, UniProt P23836)	Sort-seq, refers to: YFP reporter	E. coli	PhoQ-PhoP variant library, with: 10 µM Mg2+	relative to: high Mg2+ state, higher = stronger signaling	fold induction	10.3

Some of these lines once more (study 3):
Sequence	E-score
GACATCGC	0.2
CTCAATGC	0.0472
CTCACCTA	-0.0162
